# Published values from different studies.
# Several values in a cell are separate wells, animals, samples, runs or records.
# Target: Calcium/calmodulin-dependent protein kinase type II subunit delta (CAMK2D, Homo sapiens, UniProt Q13557)
Compound,assay,system,conditions,scale,measurement,result
CS(=O)(=O)Nc1cccc(-c2csc3cnc(Nc4ccc(N5CCN(CCCCCOc6cccc7c6C(=O)N(C6CCC(=O)NC6=O)C7=O)CC5)cc4)nc23)c1 (stereo not shown),"probe labelling, inhibitor, KiNativ chemoproteomics",MOLT-4,1 µM,,inhibition,-10.7%
CNC(=O)C1CCN(c2cc(C)c(F)cc2NC(=O)c2ccc(-c3cc(O)ccc3C)c(C)c2)CC1,"binding, competition with immobilised ligand",,1 µM,,remaining binding,85%
CN1CCN(Cc2ccc(-c3ccc(CO[C@H]4CCC[C@@H]4NC(=O)c4cc(-c5cnn(C)c5)cnc4N)cc3)cc2)CC1,"enzyme activity, inhibitor",,0.1 µM,,inhibition,8%
COc1cc(Nc2nccc(-c3cnn4nc(OC)ccc34)n2)cc(C(F)(F)F)c1,"binding, competition with immobilised ligand",,1 µM,,remaining binding,74%
NC(=O)[C@@H](O)C[C@H]1CCc2sc3ncnc(O[C@H]4CC[C@H](N5CCOCC5)CC4)c3c21,"enzyme activity, inhibitor",,10 µM,,inhibition,31%
Cc1cccc(O[C@H]2CCC[C@@H](C(C)CNCc3ccncc3)C2)c1 (relative stereo),"cell-free assay, inhibitor",,1 µM,,inhibition,2%
O=C=[N][Ru-4]123([n]4c5ccc(O)cc5c5c6c(c7cc(F)c[n+]1c7c54)C(=O)NC6=O)[S+]1CC[S+]2CC[S+]3CC1 (stereo not shown),enzyme activity,,"100 nM, human enzyme, together with: 10 µM ATP",reference: untreated,remaining activity,23%
Nc1ncc2c(n1)-c1c([nH]c3ccc(C4=CCOCC4)cc13)CCC2,"binding, competition with immobilised ligand",,1 µM,,remaining binding,100%
C=CC(=O)Nc1cccc(-c2cnc3[nH]cc(C(=O)NC(C)(C)C)c3n2)c1,"enzyme activity, inhibitor",,0.1 µM,,inhibition,-1%
COCC12C(=O)NC3C4(C(OC)CC1O)C1CC5(O)C(OC)C(O)C(OC(C)=O)(C1C5OC(=O)c1ccccc1)C3(O)C(OC)C24 (stereo not shown),"kinase activity, inhibitor, ProQinase kinase profiling",,25 µM,reference: control,remaining activity,95% and 97%
Cc1ccc(-c2c(/C=C(\C#N)C(=O)NC(C)C)n(CCCO)c3ncnc(N)c23)cc1,"cell-free assay, competition with immobilised ligand",,1 µM,,remaining binding,73%
Cc1cnc2nc1Nc1cccc(c1)COC/C=C/COCc1cc(ccc1OCCN1CCOCC1)N2,binding,,0.1 µM,,remaining binding,100%
C=CC(=O)N1CCCC(n2c(=O)c3ncccc3n(Cc3ccc(Oc4ccccc4)cc3)c2=O)C1 (stereo not shown),"cell-free assay, competition with immobilised ligand",,1 µM,,remaining binding,100%
C=CC(=O)N1Cc2nc(-c3cc(-c4cc(Cl)cnc4Cl)c(F)cc3F)n(-c3ccncn3)c2C1,"cell-free assay, inhibitor",,1 µM,,inhibition,5.5%
COc1c(Cl)cccc1Nc1c(-c2ccncc2C#C[C@@]2(C)CCCN2C(=O)/C=C/CN(C)C)[nH]c2c1C(=O)NCC2,"cell-free assay, competition with immobilised ligand",,3 µM,,remaining binding,95%
C=CC(=O)N1CCc2ccc(-n3c(=O)ccc4cnc5ccc(-c6cnn(C)c6)cc5c43)cc21,KINOMEscan,,1 µM,reference: DMSO control,remaining binding,94%

# A few entries again:
Compound,assay,system,conditions,scale,measurement,result
Cc1ccc(-c2c(/C=C(\C#N)C(=O)NC(C)C)n(CCCO)c3ncnc(N)c23)cc1,"cell-free assay, competition with immobilised ligand",,1 µM,,remaining binding,73%
Cc1cnc2nc1Nc1cccc(c1)COC/C=C/COCc1cc(ccc1OCCN1CCOCC1)N2,binding,,0.1 µM,,remaining binding,100%
